{"data": "Assay results of several laboratories", "note": "Every numbered part comes from another study and shows a few of its results, in no order."}
{"data": "Study 1", "target": "Diamine acetyltransferase 1 (Homo sapiens, UniProt P21673)", "mode": "inhibitor", "concentration": "10 µM", "baseline": "control", "Construct (P21673 1-171)": "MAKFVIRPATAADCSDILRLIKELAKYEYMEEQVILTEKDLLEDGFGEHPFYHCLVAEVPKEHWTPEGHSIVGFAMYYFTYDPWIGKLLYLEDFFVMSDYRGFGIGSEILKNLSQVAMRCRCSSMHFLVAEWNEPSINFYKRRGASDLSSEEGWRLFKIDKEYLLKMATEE"}
{"Structure (SMILES)": "CC(C)=CCC[C@H](C(=O)O)[C@@H]1CC[C@]2(C)C3=C(CC[C@@]12C)[C@@]1(C)CCC(=O)C(C)(C)[C@@H]1CC3", "remaining activity [%]": 87.8}
{"Structure (SMILES)": "C[C@@H]1CC[C@@]2(OC1)O[C@H]1C[C@H]3[C@@H]4CC=C5C[C@@H](O[C@@H]6O[C@H](CO)[C@@H](O[C@@H]7O[C@@H](C)[C@H](O)[C@@H](O)[C@H]7O)[C@H](O)[C@H]6O[C@@H]6O[C@@H](C)[C@H](O)[C@@H](O)[C@H]6O)CC[C@]5(C)[C@H]4CC[C@]3(C)[C@H]1[C@@H]2C", "remaining activity [%]": 107}
{"Structure (SMILES)": "CC(C)(C)[C@]1(O)C[C@@H]2OC(=O)C[C@@]23C(=O)O[C@@H]2OC(=O)[C@H](O)[C@]213", "remaining activity [%]": 96.5}
{"Structure (SMILES)": "CC[C@]12C=CCN3CC[C@]4(C(=C(C(=O)OC)C1)Nc1ccccc14)[C@@H]32", "remaining activity [%]": 101}
{"data": "Study 2", "Structure (SMILES)": "CC(C)n1cnc(-c2ccc(F)cc2)c1-c1ncc(C(=O)Nc2ccc(N3CCN(C)CC3)cc2)[nH]1", "method": "Phase 2a trial", "item": "influenza like illness", "species": "idiopathic pulmonary fibrosis patients"}
{"dose": "30 mg once daily", "notes": "grade 2 maximum intensity", "patients with adverse events": "0%"}
{"dose": "60 mg once daily", "notes": "grade 4 maximum intensity", "patients with adverse events": "0%"}
{"dose": "60 mg once daily", "notes": "grade 1 maximum intensity", "patients with adverse events": "0%"}
{"data": "Study 3", "cell line": "HEK-293T", "organism": "VSV pseudotyped with VSV-G", "concentration": "10 µM", "time": "16 h"}
{"SMILES": "CN(C)CCC=C1c2ccccc2COc2ccccc21", "pseudovirus infection [%]": 89.3}
{"SMILES": "O=C(CCCN1CCC(O)(c2ccc(Cl)cc2)CC1)c1ccc(F)cc1", "pseudovirus infection [%]": 117}
{"SMILES": "CCN[C@H]1C[C@H](C)S(=O)(=O)c2sc(S(N)(=O)=O)cc21", "pseudovirus infection [%]": 114}
{"SMILES": "Clc1ccc(CO/N=C(\\Cn2ccnc2)c2ccc(Cl)cc2Cl)c(Cl)c1", "pseudovirus infection [%]": 110}
{"SMILES": "CCOc1ccc(Cc2cc([C@@H]3O[C@H](CO)[C@@H](O)[C@H](O)[C@H]3O)ccc2Cl)cc1", "pseudovirus infection [%]": 104}
{"SMILES": "O=C(O)c1cn(C2CC2)c2cc(N3CCNCC3)c(F)cc2c1=O", "pseudovirus infection [%]": 97.8}
{"data": "Study 4", "cell line": "mouse MPNST tumor cells", "method": "high-content immunofluorescence imaging", "item": "nuclear SOX9", "concentration": "10 µM", "time": "12 h", "notes": "mean of 2 replicates", "baseline": "DMSO control", "reading": "higher = more nuclear SOX9"}
{"Compound": "CCOC(=O)c1ccc(-c2ccc(OC(=O)N(C)Cc3cccc(-c4ccncc4)c3)cc2)cc1", "nuclear SOX9 intensity": "126 % of DMSO"}
{"Compound": "NC(=O)C[S+]([O-])C(c1ccccc1)c1ccccc1 (stereo not drawn)", "nuclear SOX9 intensity": "109 % of DMSO"}
{"Compound": "CC(C)[C@@]1(NC(=O)[C@@H]2C[C@@H]3c4cccc5[nH]cc(c45)C[C@H]3N(C)C2)O[C@@]2(O)[C@@H]3CCCN3C(=O)[C@H](Cc3ccccc3)N2C1=O", "nuclear SOX9 intensity": "125 % of DMSO"}
{"Compound": "CC12NC(Cc3ccccc31)c1ccccc12 (single isomer, unassigned; (+))", "nuclear SOX9 intensity": "95.3 % of DMSO"}
{"Compound": "CC(=O)O[C@H]1C[C@@H]2CC[C@@H]3[C@H](CC[C@@]4(C)[C@H]3C[C@H]([N+]3(C)CCCCC3)[C@@H]4OC(C)=O)[C@@]2(C)C[C@@H]1[N+]1(C)CCCCC1", "nuclear SOX9 intensity": "98.3 % of DMSO"}
